Assay results pooled from the literature.
Each line is one published result; not all experiments were run side by side. Numbers after ± are the reported error. ≈ marks a conversion by molar mass, not a printed value.

COC1=CC(c2ccc[nH]2)=NC1=CNC1CCCCCCC1
ED50 (Plasmodium yoelii; Kenya strain MRA-428, mice; oral, day 5, dosed 4 days): < 5 mg/kg/day

CC1(C)CCCc2cc3c(cc21)C(=O)C=CC3=O
selectivity index (Leishmania infantum; intracellular amastigotes, ex vivo mouse splenic explants; relative to: HepG2 CC50 over amastigote EC50): 0.58

CNC(CC(C)C)C(=O)NC1C(=O)NC(CC(N)=O)C(=O)NC2C(=O)NC3C(=O)NC(C(=O)NC(C(=O)NCCCNC(=N)N)c4cc(O)cc(O)c4-c4cc3ccc4O)C(O)c3ccc(c(Cl)c3)Oc3cc2cc(c3OC2OC(CO)C(O)C(O)C2OC2CC(C)(NCc3ccc(-c4ccc(Cl)cc4)cc3)C(O)C(C)O2)Oc2ccc(cc2Cl)C1O (stereo not shown)
potency improvement (Enterococcus faecalis and Enterococcus faecium; VanA, 4 strains; relative to: vancomycin over cpd MIC): ~1000 fold

COc1ccc(-c2nc(-c3ccccc3OC)[nH]c2-c2ccc(OC)cc2)cc1
worm killing (Schistosoma mansoni; mature male and female worms; 25 µM, 96 h): 0%

O=C1CC(c2ccc(O)cc2)Oc2cc(O)cc([O][Ga+][O]c3cc(O)cc4c3C(=O)CC(c3ccc(O)cc3)O4)c21 (stereo not shown)
number of metabolites (Pseudomonas aeruginosa; significantly changed metabolites, GC-MS metabolomics; 4 µM, 4 h): 50

C[C@@H](c1ccn(Cc2c(F)cc(Cl)cc2F)n1)[C@](O)(Cn1cnnn1)c1ccc(F)cc1F
MIC (Aspergillus fumigatus; growth, broth microdilution; 7544; 48 h, 35 °C, ≥50% inhibition): > 64 µg/mL

O=[N+]([O-])c1ccc(/C=N/N=C/c2ccc([N+](=O)[O-])o2)cc1
IC50 (Trypanosoma equiperdum; parasite growth, CellTiter-Glo; IVM-t1 bloodstream form; 72 h): 1240 ± 460 nM

Cc1ccc(S(=O)(=O)N(CCc2nnc(S)o2)c2ccccc2)cc1
relative inhibition (Aspergillus niger; cup plate method; 100 µg/mL; relative to: fluconazole): 20.7%

CC(=O)Oc1ccc(OC(C)=O)c2cc3c(cc12)CCCC3(C)C
selectivity index (Leishmania infantum; promastigotes; relative to: HepG2 CC50 over promastigote EC50): 1.8

Fc1ccc2c(c1)c1nc3ccc(Br)cc3c-1cn2Cc1cn(-c2ccccc2I)nn1
fold change (Giardia duodenalis trophozoites; UHPLC-Q-TOF-MS, item: lignoceric acid; IC50, 0.2787 h; relative to: 0.25% DMSO): -28.8

COC1=CC(c2ccc[nH]2)=NC1=CNC12CC3CC(CC(C3)C1)C2
ED50 (Plasmodium yoelii; Kenya strain MRA-428, mice; oral, day 5, dosed 4 days): 84 mg/kg/day

COc1ccc(-n2c(=O)c(C(=O)C3C(=O)CCCC3=O)nc3c(F)cccc32)cc1
ED90 (Schoenoplectus juncoides; herbicidal activity, paddy pot test, visual rating; 28 days): 6.3 g a.i./10 a

Cc1ncc([N+](=O)[O-])n1CCOCc1nnc(SCC(=O)c2ccc(Cl)cc2)o1
inhibition zone diameter (Serratia marcescens; DMSO; 60 µg/mL, 24 h, 37 °C): 15 to 20 mm

COc1cc(OC(C)=O)c2cc3c(cc2c1OC(C)=O)CCCC3(C)C
selectivity index (Leishmania infantum; intracellular amastigotes, ex vivo mouse splenic explants; relative to: HepG2 CC50 over amastigote EC50): 2.8

C=C(C)[C@@H]1CC[C@]2(C(N)=O)CC[C@]3(C)[C@H](CC[C@@H]4[C@@]5(C)CCCNC(C)(C)[C@@H]5CC[C@]43C)[C@@H]12
EC90 (Human papillomavirus 11; viral replication, luciferase reporter; C-33 A): > 1200 nM

c1ccc(-c2nc(-c3ccc4ccccc4c3)c[nH]2)cc1
worm killing (Schistosoma mansoni; female worms; 100 µM): 0%

COC1=CC(c2ccc[nH]2)=NC1=CNC1CCCC1
ED50 (Plasmodium yoelii; Kenya strain MRA-428, mice; oral, day 5, dosed 4 days): < 5 mg/kg/day

CC(C)C[C@@H]1NC(=O)[C@H](CCCCN)NC(=O)[C@@H]2CCCN2C(=O)[C@@H](Cc2ccc(O)cc2)NC(=O)[C@H](CCCCN)NC(=O)[C@H](C(C)C)NC(=O)[C@H](CC(C)C)NC(=O)[C@H](CCCCN)NC(=O)[C@H](C(C)C)NC(=O)[C@@H]2CCCN2C(=O)[C@@H](Cc2ccc(O)cc2)NC(=O)[C@H](CC(C)C)NC(=O)[C@H](CCCCN)NC(=O)[C@H](C(C)C)NC(=O)[C@H](CCCCN)NC1=O
MIC geometric mean (fungi; 24 h, 2 strains): 22.6 µg/mL

COC1=CC(c2ccc[nH]2)=NC1=Cc1[nH]c(Cc2ccc(Cl)cc2)cc1Cc1ccc(Cl)cc1
parasitaemia suppression (Plasmodium yoelii; Kenya strain MRA-428, mice; oral, 50 mg/kg daily for 4 days, day 5): 100%

CC[C@@H](C)[C@@H](NC(=O)[C@@H](C)NC(=O)[C@@H](CCCCN)NC(=O)[C@@H](CC(C)C)NC(=O)[C@@H](CC(C)C)NC(=O)[C@H](NC(=O)[C@@H](CCCCN)NC(=O)[C@@H](CC(C)C)NC(=O)[C@@H](C)NC(=O)[C@@H](CCCCN)NC(=O)[C@@H](CCCCN)NC(=O)[C@@H](CCCCN)NC(=O)[C@@H](C)NC(=O)[C@@H](CCCCN)NC(=O)[C@@H](CO)NC(=O)[C@@H](Cc1ccccc1)NC(=O)[C@H](NC(=O)[C@@H](CCCCN)NC(=O)[C@@H](CC(C)C)NC(=O)[C@@H](Cc1ccccc1)NC(=O)[C@@H](CO)NC(=O)[C@@H](CCCCN)NC(=O)[C@@H](Cc1c[nH]c2ccccc12)NC(=O)[C@@H](CCCCN)NC(C)=O)[C@H](C)O)[C@H](C)O)C(=O)N[C@H](CO)C(=O)N[C@H](CCCCN)C(N)=O
MIC geometric mean (Acinetobacter baumannii; 11 isolates; 24 h, 37 °C): 0.8 µM

CCNC1=CC(=O)c2cc3c(cc2C1=O)CCCC3(C)C
selectivity index (Leishmania infantum; intracellular amastigotes, ex vivo mouse splenic explants; relative to: HepG2 CC50 over amastigote EC50): 4.4

CCCCCCN=Cc1[nH]c(-c2ccc[nH]2)cc1OC
parasitaemia suppression (Plasmodium yoelii; Kenya strain MRA-428, mice; oral, 5 mg/kg daily for 4 days, day 5): 90%

O=S(=O)(c1ccccc1)N(CCc1nnc(S)o1)c1ccc(Cl)cc1
relative inhibition (Aspergillus niger; cup plate method; 100 µg/mL; relative to: fluconazole): 48.5%

CCOC(=O)c1c(C#N)c(-c2c[nH]c3c(C)cccc23)n(NC(=O)OC(C)(C)C)c1C
selectivity ratio (Leishmania infantum; MHOM/TN/80/IPT1 promastigotes; relative to: CC50 THP-1 over IC50 promastigotes): 3.2

Cc1ncc([N+](=O)[O-])n1CCOCc1nnc(SCC(=O)c2ccc(Br)cc2)o1
inhibition zone diameter (Serratia marcescens; DMSO; 60 µg/mL, 24 h, 37 °C): 15 to 20 mm

CC1(C)NCCC[C@]2(C)[C@H]3CC=C4[C@@H]5C[C@@](C)(CO)CC[C@]5(C)CC[C@@]4(C)[C@]3(C)CC[C@@H]12
EC90 (Human papillomavirus 11; viral replication, luciferase reporter; C-33 A): > 1200 nM

CC1(CCCCCCCCCCCCCCOCCCOP(=O)(O)CO[C@H](CO)Cn2ccc(N)nc2=O)COC1
selectivity index (human gammaherpesvirus 4; qPCR; Akata; relative to: CC50 over EC50): > 10

C=C(C)[C@@H]1CCC=C2CC[C@]3(C)[C@H](CC[C@@H]4[C@@]5(C)CCCNC(C)(C)[C@@H]5CC[C@]43C)[C@H]21
EC90 (Human papillomavirus 11; viral replication, luciferase reporter; C-33 A): > 1200 nM

C[C@@H](c1ccn(Cc2ccc(F)cc2)n1)[C@](O)(Cn1cnnn1)c1ccc(F)cc1F
MIC (Aspergillus fumigatus; growth, broth microdilution; 7544; 48 h, 35 °C, ≥50% inhibition): > 64 µg/mL

Oc1c(Br)cc(Br)c2nc3c(C(F)(F)F)cc(C(F)(F)F)cc3nc12
MBC (Staphylococcus aureus; Calgary biofilm device; MRSA ATCC BAA-44, biofilm-released planktonic cells; 24 h, 37 °C): 0.3 µM (≈ 0.147 µg/mL)

CC(=O)[O-].O.O.O.O.[Mn+2].[O-]c1ccc(Br)cc1C=NCCN1CCOCC1
inhibition zone diameter (Aspergillus niger; 20 µL of 100 µM per disc): 26 mm

CCCCn1c2ccccc2c2ccnc(-c3ccccc3Cl)c21
killed protoscoleces (Echinococcus granulosus sensu stricto; protoscoleces; 200 µM, 48 h): > 90%

CN[C@H](CC(C)C)C(=O)N[C@H]1C(=O)N[C@@H](CC(N)=O)C(=O)N[C@H]2C(=O)N[C@H]3C(=O)N[C@H](C(=O)N[C@H](C(=O)O)c4cc(O)cc(O)c4-c4cc3ccc4O)[C@H](O)c3ccc(c(Cl)c3)Oc3cc2cc(c3O[C@@H]2O[C@H](CO)[C@@H](O)[C@H](O)[C@H]2O[C@H]2C[C@](C)(NCc3ccc(C(=O)OCCCCCCN(Cc4ccccn4)Cc4ccccn4)cc3)[C@H](O)[C@H](C)O2)Oc2ccc(cc2Cl)[C@H]1O
regulation factor (Bacillus subtilis; protein synthesis, item: YtkL; 168; concentration not given, 10 min, at peak effective concentration; relative to: untreated): 5.7 ± 1.3

C[C@@H](c1ccn(Cc2ccc(F)cc2F)n1)[C@](O)(Cn1cnnn1)c1ccc(F)cc1F
MIC (Aspergillus fumigatus; growth, broth microdilution; 7544; 48 h, 35 °C, ≥50% inhibition): 32 µg/mL (≈ 71.7 µM)

C#CCn1c2ccc([N+](=O)[O-])cc2c(=O)n1Cc1ccccc1
IC50 (Leishmania amazonensis; parasite growth, resazurin; 72 h, promastigote): 900 nM

CC[C@H](C)[C@H](NC(=O)[C@H](CC(=O)O)NC(=O)[C@@H](NC(=O)[C@H](CC(N)=O)NC(=O)[C@H](CC(N)=O)NC(=O)[C@H](CC(=O)O)NC(=O)[C@H](CCCNC(=N)N)NC(=O)CNC(=O)[C@H](CS)NC(=O)[C@H](CC(=O)O)NC(=O)[C@H](Cc1c[nH]cn1)NC(=O)[C@@H]1CCCN1C(=O)[C@H](CC(C)C)NC(=O)[C@@H]1CCCN1C(=O)[C@H](CC(N)=O)NC(=O)[C@H](Cc1ccc(O)cc1)NC(=O)[C@@H](N)Cc1ccc(O)cc1)[C@@H](C)O)C(=O)N[C@@H](CS)C(=O)N[C@@H](CO)C(=O)N[C@@H](CCCNC(=N)N)C(=O)O
MBC (Escherichia coli, Acinetobacter baumannii, Pseudomonas aeruginosa): > 128 µM

CCc1c(C)[nH]c(C=NC23CC4CC(CC(C4)C2)C3)c1C
parasitaemia suppression (Plasmodium yoelii; Kenya strain MRA-428, mice; oral, 100 mg/kg daily for 4 days, day 5): 100%

CC(C)C[C@@H]1NC(=O)[C@H](CCCCN)NC(=O)[C@H](C(C)C)NC(=O)[C@@H]2CCCN2C(=O)[C@@H](Cc2ccc(O)cc2)NC(=O)[C@H](CC(C)C)NC(=O)[C@H](CCCCN)NC(=O)[C@H](C(C)C)NC(=O)[C@H](CCCCN)NC(=O)[C@H](CC(C)C)NC(=O)[C@@H]2CCCN2C(=O)[C@@H](Cc2ccc(O)cc2)NC(=O)[C@H](CCCCN)NC1=O
MIC geometric mean (fungi; 24 h, 2 strains): 5.7 µg/mL

C[C@@H](c1ccn(Cc2ccc(C(C)(C)C)cc2)n1)[C@](O)(Cn1cnnn1)c1ccc(F)cc1F
MIC (Aspergillus fumigatus; growth, broth microdilution; 7544; 48 h, 35 °C, ≥50% inhibition): > 64 µg/mL

CC(C)CCCc1ccc2c(c1)C(=O)C(Br)=C(Br)C2=O
selectivity index (Leishmania infantum; promastigotes; relative to: HepG2 CC50 over promastigote EC50): 1.3

For quick reference, copied from above:
CCOC(=O)c1c(C#N)c(-c2c[nH]c3c(C)cccc23)n(NC(=O)OC(C)(C)C)c1C
selectivity ratio (Leishmania infantum; MHOM/TN/80/IPT1 promastigotes; relative to: CC50 THP-1 over IC50 promastigotes): 3.2

Cc1ncc([N+](=O)[O-])n1CCOCc1nnc(SCC(=O)c2ccc(Br)cc2)o1
inhibition zone diameter (Serratia marcescens; DMSO; 60 µg/mL, 24 h, 37 °C): 15 to 20 mm

CC1(C)NCCC[C@]2(C)[C@H]3CC=C4[C@@H]5C[C@@](C)(CO)CC[C@]5(C)CC[C@@]4(C)[C@]3(C)CC[C@@H]12
EC90 (Human papillomavirus 11; viral replication, luciferase reporter; C-33 A): > 1200 nM

CC1(CCCCCCCCCCCCCCOCCCOP(=O)(O)CO[C@H](CO)Cn2ccc(N)nc2=O)COC1
selectivity index (human gammaherpesvirus 4; qPCR; Akata; relative to: CC50 over EC50): > 10

C=C(C)[C@@H]1CCC=C2CC[C@]3(C)[C@H](CC[C@@H]4[C@@]5(C)CCCNC(C)(C)[C@@H]5CC[C@]43C)[C@H]21
EC90 (Human papillomavirus 11; viral replication, luciferase reporter; C-33 A): > 1200 nM

C[C@@H](c1ccn(Cc2ccc(F)cc2)n1)[C@](O)(Cn1cnnn1)c1ccc(F)cc1F
MIC (Aspergillus fumigatus; growth, broth microdilution; 7544; 48 h, 35 °C, ≥50% inhibition): > 64 µg/mL

Oc1c(Br)cc(Br)c2nc3c(C(F)(F)F)cc(C(F)(F)F)cc3nc12
MBC (Staphylococcus aureus; Calgary biofilm device; MRSA ATCC BAA-44, biofilm-released planktonic cells; 24 h, 37 °C): 0.3 µM (≈ 0.147 µg/mL)
